Measured values pooled from the literature.
Protocols differ between the studies behind these lines. ± marks the error that the study gave.
Cell line: HEK293

SMILES = O=C(NCCCNS(=O)(=O)c1ccc(OC(F)(F)F)cc1)C1=Cc2ccccc2S1(=O)=O; assay = immunoblotting, refers to: REST protein; setting = 10 µM, 2 days, daily replenishment; scale = reference: DMSO; endpoint = protein level; result = ~5%
SMILES = COc1cccc(C(=O)Nc2ccc(S(N)(=O)=O)c(OC)c2)c1; assay = cell viability, MTT; setting = 48 h; endpoint = IC50; result = > 100 µM
SMILES = Cc1ccc(C)c(COc2cc(NC(=O)c3ccc(Cl)c(Cl)c3)ccc2NC(=N)N)c1; assay = cell growth, MTT; setting = 48 h; endpoint = IC50; result = > 500 µM
SMILES = COc1cc(NC(=O)c2ccccc2[N+](=O)[O-])ccc1S(N)(=O)=O; assay = cell viability, MTT; setting = 48 h; endpoint = IC50; result = > 100 µM
SMILES = CC(C)C[C@@H](C=O)NC(=O)[C@H](CC(C)C)NC(=O)[C@H](CC(C)C)NC(=O)OCc1ccccc1; assay = refers to: CD4 signal peptide-FLuc reporter; setting = concentration not given, 2 h, time-course chase, unit not given, added: cycloheximide; scale = reference: untreated; endpoint = FLuc activity; result = 1.06
SMILES = O=c1[nH]c(CCl)nc2scc(-c3ccc(F)cc3)c12; assay = cell viability, resazurin; setting = 24 h; endpoint = EC50; result = 3.9 ± 0.4 µM
SMILES = N=C(N)Nc1ccc(NC(=O)c2ccc(Cl)c(Cl)c2)cc1OCc1ccccc1C(F)(F)F; assay = cell growth, MTT; setting = 48 h; endpoint = IC50; result = > 500 µM
SMILES = COc1cc(NC(=O)c2cccc(Cl)c2)ccc1S(N)(=O)=O; assay = cell viability, MTT; setting = 48 h; endpoint = IC50; result = > 100 µM
SMILES = O=c1[nH]c(CCl)nc2scc(-c3ccc(C(F)(F)F)cc3)c12; assay = cell viability, resazurin; setting = 24 h; endpoint = EC50; result = 3.9 ± 0.3 µM

Repeated from above:
SMILES = Cc1ccc(C)c(COc2cc(NC(=O)c3ccc(Cl)c(Cl)c3)ccc2NC(=N)N)c1; assay = cell growth, MTT; setting = 48 h; endpoint = IC50; result = > 500 µM
